Assay results gathered from unrelated publications.
A part holds a random share of what one study measured. Changes are numbered by the printed parent chain.

Sample 1
Target: RING finger protein unkempt homolog, zinc fingers 1-6, GST-SBP tag (UNK, Homo sapiens, UniProt Q9C0B0, residues 30-357)
Chain of UniProt Q9C0B0 (30-357, looked up): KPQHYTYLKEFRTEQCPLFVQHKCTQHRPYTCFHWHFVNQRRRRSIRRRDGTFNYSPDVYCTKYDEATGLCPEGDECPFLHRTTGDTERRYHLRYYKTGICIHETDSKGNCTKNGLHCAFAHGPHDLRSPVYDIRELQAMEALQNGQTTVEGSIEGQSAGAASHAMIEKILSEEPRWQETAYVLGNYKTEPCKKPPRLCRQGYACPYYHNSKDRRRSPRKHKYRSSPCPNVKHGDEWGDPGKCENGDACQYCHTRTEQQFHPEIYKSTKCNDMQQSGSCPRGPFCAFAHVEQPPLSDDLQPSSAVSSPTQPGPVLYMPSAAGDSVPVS
Technique: RNA Bind-n-Seq
Molecule type: RNA
Medium: in vitro
Concentration: not given
Notes: RNA with constant flanks, human-mouse chimeric sites, ends assumed
Reference: input RNA pool
Direction: higher = stronger binding
Measurement: bound/input enrichment
Constant ends, left off below: GGGAGUUCUACAGUCCGACGAUC … CAACAGAGGAUUGAGCAUCA
ACUCAGAGAUCCACCUCCCAAAGUGCUGGGAGUAAAGGUGUGGCCACCACACCUAACUUCAUAGACAUAUAUUUUUUUUAAUAUGAAUCUUCCUGUUCUUCAUCCAGAGAAAGAUUUGUU: 3.54 ratio
AAAUUUCCCCUCCUGAGACCUCCUCCGAAGUUGGAGUCUCUUACAGAUGCCUCAUCCCCUGUUAGCGUUUUAGUUUGGACCACCCAGCCUUGGACAAUUCCCGCCAAUGAAGCUGUUUGC: 2.38 ratio
AAAGUGAUGACUAUGUUUGUCCAACGACAGGUAUUUUCGGAGAGCAAGGAUGAGAUUGCUUUAGUCCUCUAUGGCACAGAUGGCACUGAUAAUGCCCUUGCUGGCAAGGACCAGUAUCAG: 0.134 ratio
GGAUCUUUGGGACUGUUUUACUUAAUUGGUCAUUGAUAGCUUAACAAACAUGGAGAUAAGAUUAGAAAUCUUGACAUCAACAAGUAUUAAGCAGAAAAAACCAUGGCCACGUGUCUCCUG: 0.186 ratio
AAGCAACGCAAACUUGAAACAAUUCGUUAUCUUGCAGCCUCAGUGUUCACUUGCUUGUGGCAAUAGCUGGGGUUUUAUAGGUUCUGGAAGGAGAACUGACGAUGAUGCUGCCGCUGCUGC: 0.19 ratio
CAGUCCCGCGACAGCGUUGCAGGACGAUGUGAACAAAAACUCAAAGCGGACCCUCUAUUGUAGUUCUUUUUUUAAAUAAUGUGCUAUUAUUGUUUGUCUUUUUUUUUUUUUUUUUAAAGA: 2.72 ratio
CAGCCUCAGAGCCCAGACUUCCUGGAUAUUACCAACCCUAAAGCGGUAUUAGAAAAUGCACUUAGGAACUUCGCCUGUCUGACGACUGGGGAUGUGAUUGCUAUCAACUACAAUGAGAAG: 0.669 ratio
CUGAGGAUACCACUGAAGAGACCUUAAAAGAAUCAUUUGAGGGCUCUGUUCGUGCAAGAAUAGUCACCUGACCGGGAACUGGUUCUUCCAAAGGGUUUGGUUUUGUAGACUUUAAUAGUG: 0.776 ratio
GUAGCUGGGACUACAGAAGAAUGCUGAAUUUCAGUCACUUGCUGAUGACUUCUGAUGUCCCAGCAAAUGUUGGCAUUCACUGCAAUAGAGAAGAUACUUCUGAGGACCCACGUCUAAGGU: 0.254 ratio
UUAAUCCCCUUUACUGCUCCACCACUGCUCAUGGUAAUAACAAAGUCUUAUAUCCCCGUCCUAGCUUUCACUCAGAUGGCUUAUGGAGCCGGUUUCCUAUCUUUCUUGGGAGGGAUCAGA: 0.22 ratio
CUGGCCUGGCCCUCCCCAGGGGCCUCCUUUCGUAUAGUCACUGCUUCUGCUACGGAUAUUUUUAGCUGCAACUCCCUACUGGGUGGGGCACCCAUUUCAGGCAGAAGGUUUUGGUACCCU: 0.347 ratio

Sample 2
Target: Fragile X messenger ribonucleoprotein 1, C-terminal low-complexity region (Fmr1, Mus musculus, UniProt P35922)
Technique: RNA Bind-n-Seq
Molecule type: RNA
Medium: in vitro
Concentration: 200 nM
Notes: whole 134-nt RNA, ends assumed
With: 150 mM KCl
Reference: input library
Direction: higher = stronger binding
Measurement: log2 enrichment
Constant ends, left off below: GGGAGUUCUACAGUCCGACGAUC … UGGAAUUCUCGGGUGUCAAGG
AGUCCUGUGCUACACAUCGUAUGUACCGAAUCGGGAAAAAAAGGGUUUUUGGGAGGGAAAGUAUUAUGUUACGCCGUUCGGAUCUGCACU: 0.414
CAAGUCCUGUGCUACACAUCGUAUGUACCGAAUCGGUUUUGGGGUUUUGGUUUUGGAAAGUAUUAUGUUACGCCGUUCGGAUCUGCACUU: -0.521
UAACUUUAGAGGAGGAUCUGAUGGAUAUGGCAGCGGACGUGGAUUUGGGGAUGGCUAUAAUGGGUAUGGAGGAGGACCUGGAGGUGGCAA: 0.234
UGGCCCUGGUGGCAUGCGGGGAGGAAGAGGUGGCCUCAUGGAUCGUGGUGGUCCCGGUGGAAUGUUCAGCGGUGGCCGUGGUGGAGACAG: -0.142
AAGUCCUGUGCUACACAUCGUAUGUACCGAAUCGGGGCCCCGGCCCCGGGCCCCGGAAAGUAUUAUGUUACGCCGUUCGGAUCUGCACUU: -0.67
UACAUUCUUUACCCCUUGUUUUAAUUUGAACCCCACCAUAUGGAUUUUUUUCCUUAAGAAAAUCUCCUUUUAGGAGAUCAUGGUGUCACA: 0.016
UGGCCCUGGUGGCAUGCGGGGAGGAAGAGGUGGCCUCAUGGAUCGUGGUGGUACCGGUGGAAUGUUCAGAGGUGGCCGUGGUGGAGACAG: 0.0875
AGUCCUGUGCUACACAUCGUAUGUACCGAAUCAAACCCAAAUUUUUUUAAACCCAAAAAAGUAUUAUGUUACGCCGUUCGGAUCUGCACU: -0.128
CCUCAAGUCCUGUGCUACACAUCGUAUGUACCGAAUCGGUGGGUGGGGUGGGAAAGUAUUAUGUUACGCCGUUCGGAUCUGCACUUCCAG: 1.04
UCCUGUGCUACACAUCGUAUGUACCGAAUCGGGGAGGGGAAAAAGGGGAAAAAAAGGGGAAAGUAUUAUGUUACGCCGUUCGGAUCUGCA: 0.471
AGUCCUGUGCUACACAUCGUAUGUACCGAAUCGGGGAAAAGGGGAAAAGGGGAAAAGGAAAGUAUUAUGUUACGCCGUUCGGAUCUGCAC: 0.0889
UUAAGAAUAUUUAGAUAUUUGUAAAAGAAUUUGAAUGAUUUAUUUAAUAUAACGUUUAUUUUAUUAGCUCUAUUCCAAUUGAUUACAACC: -1.3
CACAGACAACACGCACCCACACAGACACAGAGGGAAGGGGUUGGGAUGGGGACAGGGUGCACAGCAAGGCGGGGUAGGACCCCAGCCCCU: 1.2
CACAGACAACACGCACCCACACAGACACAGAGGGAAGGGGUUGGGAUGGGGACAGGGUGCACAGCAGGGCGGGGUAGGACCACAGCCCCU: 1.2

Sample 3
Target: Interferon regulatory factor 3, full length, phosphomimetic (IRF3, Homo sapiens, UniProt Q14653, residues 1-427, S386D/S396D/S398D/S402D/T404D/S405D)
Chain of UniProt Q14653 (whole entry, unmodified, looked up): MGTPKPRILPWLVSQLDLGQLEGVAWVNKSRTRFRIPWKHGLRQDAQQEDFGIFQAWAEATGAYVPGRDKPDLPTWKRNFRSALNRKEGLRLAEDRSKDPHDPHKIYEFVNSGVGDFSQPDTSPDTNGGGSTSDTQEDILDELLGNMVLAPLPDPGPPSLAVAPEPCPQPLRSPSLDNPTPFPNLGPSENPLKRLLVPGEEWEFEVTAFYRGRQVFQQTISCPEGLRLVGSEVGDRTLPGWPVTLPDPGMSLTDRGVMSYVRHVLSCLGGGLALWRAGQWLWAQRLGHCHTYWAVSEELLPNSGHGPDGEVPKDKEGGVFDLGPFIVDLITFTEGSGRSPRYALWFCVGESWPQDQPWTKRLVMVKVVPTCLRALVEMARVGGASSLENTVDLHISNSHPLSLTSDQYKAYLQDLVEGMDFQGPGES
Technique: protein-binding microarray
Molecule type: double-stranded DNA, one strand shown
Medium: in vitro
Concentration: 2540 nM top
Notes: 60-bp whole probe
With: salmon DNA 0.4 mg/ml
Reference: random background probes
Direction: higher = stronger binding
Measurement: fitted relative affinity
Constant ends, left off below: GCCTAGCAC … GTCTTGATTCGCTTGACGCTGCTG
GACGGAGTGCTTCTCCTGACGTGCTAG: -0.377 z-score
TTAGGACTGGGGTGTCGGTTAGTGCTA: -0.404 z-score
TTAGGTTTCCTACTGTTTTAGTGCTAG: 4.4 z-score
TTTGCTTTCTTTATGTACTCGTGCTAG: 2.68 z-score
TTAGGACTGGACTATAGGTTAGTGCTA: -0.616 z-score
CGTACTGTATCTAGCCTTGCGTGCTAG: 1.2 z-score
TCAATTTCCATTATTGCACTGTGCTAG: 3.66 z-score
GACGGTTCCGGTTTCGCGACGTGCTAG: 5.26 z-score
TGCATTCCCTTTCTCAACCTGTGCTAG: 4.94 z-score
GACAGACTGGGTCTCGGGACGTGCTAG: -0.794 z-score
GACGGCATCGGGTTTCGGGACGTGCTA: 0.335 z-score
GACGGTTTCCTTTTCCTCACGTGCTAG: 10.7 z-score
TTATGTTTCGGTTCCGGTTAGTGCTAG: 10 z-score
TTAGGTTTCGGTCTCGGTTCGTGCTAG: 8.68 z-score
GACGGACTGGGTCTTGGGACGTGCTAG: -0.922 z-score
TTGATTGTGGCTTTTTAATGGTGCTAG: -0.615 z-score
TTAGGTTTCGGTATCAGTTAGTGCTAG: 8.38 z-score
TCATATATAATATATATTACTGTGCTA: 0.673 z-score
GCTAGTATGTTCCTTATTTAAGTGCTA: 1.38 z-score
TTAGGGTTCGGTCTCGGTTAGTGCTAG: 2.01 z-score
TTAGATTTCGGGCCTGGATTAGTGCTA: 0.223 z-score

Other studies, line by line
P1: CABLES2 docking peptide (human); ICAKRSLCAAFSV; partner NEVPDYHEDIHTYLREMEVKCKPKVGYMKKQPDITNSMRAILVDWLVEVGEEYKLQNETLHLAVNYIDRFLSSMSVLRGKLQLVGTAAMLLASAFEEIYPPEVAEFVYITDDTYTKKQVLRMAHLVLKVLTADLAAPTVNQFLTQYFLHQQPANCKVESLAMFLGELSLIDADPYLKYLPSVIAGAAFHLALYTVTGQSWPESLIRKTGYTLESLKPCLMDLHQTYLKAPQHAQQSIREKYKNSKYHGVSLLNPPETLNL
PSSMRKICTYFHR
enrichment score (Cln2 (Saccharomyces cerevisiae); peptide binding, competitive growth sequencing; peptide, Saccharomyces cerevisiae, unfused Cln2 strain; mutational scanning library 2; direction not given): -2.5

GSPLAKAFTSTGL
enrichment score (Saccharomyces cerevisiae; peptide binding, yeast competitive growth sequencing; peptide, cyclin F-Cln2 fusion; library 1; direction not given): 0.147

ASPLKKLFTSTGL
enrichment score (human cyclin A2; peptide binding, competitive growth sequencing; peptide, Saccharomyces cerevisiae, cyclin A2-Cln2 fusion strain; mutational scanning library 1; direction not given): -0.671

P1 C8A
normalised enrichment score (CCNA2, cyclin fold, Cln2 fusion (human); yeast growth competition, sequencing; yeast; strong parent motif; reference: not given, higher = stronger binding): 2.98

For quick reference, copied from above (sample 3):
GACGGCATCGGGTTTCGGGACGTGCTA: 0.335 z-score
GACGGTTTCCTTTTCCTCACGTGCTAG: 10.7 z-score
TTATGTTTCGGTTCCGGTTAGTGCTAG: 10 z-score
